Assay results collected from several papers.
Each numbered part is a random draw from the data of one study; scales do not carry over between parts. Substitutions count along the parent as printed.

Study 1
Target: ABI1, truncated, D143A, DHFR fusion (Arabidopsis thaliana)
Technique: DHFR PCA, deep sequencing
Medium: yeast
Notes: methotrexate growth selection, single substitutions
With: (+)-ABA 710 µM
Relative to: wild-type fitted maximum
Reading: higher = stronger binding
Starting sequence: PYL1, truncated, DHFR fusion (Arabidopsis thaliana); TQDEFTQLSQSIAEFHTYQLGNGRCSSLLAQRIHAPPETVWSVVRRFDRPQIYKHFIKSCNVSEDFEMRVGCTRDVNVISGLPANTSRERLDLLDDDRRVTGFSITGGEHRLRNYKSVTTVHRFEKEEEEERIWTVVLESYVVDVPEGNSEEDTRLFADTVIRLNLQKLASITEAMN
Change	relative binding score
D48F	44.4%
H34W	92.2%
S140P	8.4%
T173S	100%
D96N	99.9%
I172W	87.4%
I79H	107%
G21N	96.1%
D3H	106%

Study 2
Target: RNA binding protein fox-1 homolog 2, RRM domain, GST-SBP tag (RBFOX2, Homo sapiens, UniProt O43251-10, residues 100-194)
Technique: RNA Bind-n-Seq
Form: RNA
Medium: in vitro
Concentration: 365 nM
Notes: natural RNA segment, single round, ends assumed
Relative to: no-protein control
Reading: higher = stronger binding
Construct (chain): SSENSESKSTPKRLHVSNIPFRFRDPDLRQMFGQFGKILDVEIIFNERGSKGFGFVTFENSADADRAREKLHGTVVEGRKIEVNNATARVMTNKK
Strand	RBNS enrichment (R)
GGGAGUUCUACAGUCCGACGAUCCUUUCCAAAUGAAUGUGAGGAGUUGCUUUCACUUCAAGACUGUCCUUCUUUUCAGUAAAACUUUAGGAGAUGUUAUGGGGAAAGGGAGGGAACAGAAAUCCUUGAACUUUUGGAAUUCUCGGGUGCCAA	0.612
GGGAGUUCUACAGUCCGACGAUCCACAUUUUUAACUCCUCUCGCUCUGAUGGGACAUUUGUUACCCUUUUUUCAUAGUGAAAUUGUGUUUCAGGCUUAGUCUGACCUUUCUGGUUUCUUCAUUUUCUUCCAUUUGGAAUUCUCGGGUGCCAA	0.653
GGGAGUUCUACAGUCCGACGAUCGUGAUGGCCCCAUUUUUACAGUUUUCCACAUGCUGGGGAGCCUAGGCCAAGCUGGUCACAAGUGGUCACUUACUCUUGCCAUUCUUCAUGAACCAAACCAACUGUGUGACUGGAAUUCUCGGGUGCCAA	0.29
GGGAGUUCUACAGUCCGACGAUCCAGCAUAAUUAGUGUUGAGAGUGGUUCAGUUGUCUUUAAUGUUUGUCAUGUGGAAAUGGAAGUAGCCUCUUUUUGUUCUGAAAUUGAGUUUAUUCAAAGUGUAAAAGCACUGGAAUUCUCGGGUGCCAA	1.4
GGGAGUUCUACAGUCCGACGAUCGGAUCAGGAGUUCAAGGUCAUCCUUGGCUACAUAGGGGGUUCAAAGCCAGCCUGGGCCCAAUGAAACCUGGUCUCAAGAGAACAAAACCAAACCAAUCAAAUAUGGUCCUUGGAAUUCUCGGGUGCCAA	0.321
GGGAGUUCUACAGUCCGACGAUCAGCCUUUCAUAGACUCAUAGGGAAUAAAGCCAAAUGUAGCUCUUACUCUUUAUAAAAUAAAGUGUUAGGUAAAUUGAGAAGACCAUUCCAUCAUUGAAGUGUUGGGAUAUUGGAAUUCUCGGGUGCCAA	0.364
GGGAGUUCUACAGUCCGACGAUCUUAUGGAGGAAGGAAUGGAUCUUUGGUCAGAUGAGACUAACAGAGGGACUCACUGUCAGAGUUAGCGUGGAUUGCUGCUGCCGGGGCACUACCUCCUGGCUUCUCUCCCUUGGAAUUCUCGGGUGCCAA	0.711
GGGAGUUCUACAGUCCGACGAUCCCUUGGAGAUAUCGAAGUAUGGGAUCAAGCUGAGAAAGAACUUGAAAACAGUCUGAAUGAAUUUGGUGAAAAGUGGGAGUUAAACUCUGGAGAUGGAGCUUUCUAUGGCCUGGAAUUCUCGGGUGCCAA	1.68
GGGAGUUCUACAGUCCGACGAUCAAUAGUAUGCUCUUUGCUUUGGAAUCUCUAAUUUACGGUCAUGCCCUAAGUCACAGGAUGAUUAUUAGGGAAAUGUCAUUGACACCUGAAAAUUACCUAUCCUGUAAAAAUGGAAUUCUCGGGUGCCAA	0.327
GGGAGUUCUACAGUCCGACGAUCUUCAAAUGUAUCAGAUCUCUGUGCCAGAUACUCAUAUUAGUAUACCCUGUUCAAAGGAGAAUGGUGGAUAAUACUGUCUGAGGAAAUCAGAACUUAUUUGAGAAGGAAGCUGGAAUUCUCGGGUGCCAA	0.38
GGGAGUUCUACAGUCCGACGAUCAUUUAAAUGUUUCUAGUAACCACAUUUUUUUAAAAGUAAAAAGAAACCCAUGGUAUUGAUUUAAAUAUAUUUUAUUUAACCCAAUAGCUCAAAAACACUAUCAUUUCAACUGGAAUUCUCGGGUGCCAA	0.448
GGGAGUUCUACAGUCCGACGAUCUUUUGCAGCAAAGUGAUAUUUAUUGAGUUAUGUGGAAAAGAUGGCUUGUAUUUUUCAGAUUAUUACAACACACUGUGCAGAAUUAGACAGAUGUUCCGUGGUGUUUGGUUUGGAAUUCUCGGGUGCCAA	4.35

Study 3
Target: CCNE2, cyclin fold, Cln2 fusion (human)
Technique: yeast growth competition, sequencing
Medium: yeast
Notes: strong parent motif
Relative to: not given
Reading: higher = stronger binding
Starting sequence: GMNC docking peptide (human); KNAKRNLSSEFAN; partner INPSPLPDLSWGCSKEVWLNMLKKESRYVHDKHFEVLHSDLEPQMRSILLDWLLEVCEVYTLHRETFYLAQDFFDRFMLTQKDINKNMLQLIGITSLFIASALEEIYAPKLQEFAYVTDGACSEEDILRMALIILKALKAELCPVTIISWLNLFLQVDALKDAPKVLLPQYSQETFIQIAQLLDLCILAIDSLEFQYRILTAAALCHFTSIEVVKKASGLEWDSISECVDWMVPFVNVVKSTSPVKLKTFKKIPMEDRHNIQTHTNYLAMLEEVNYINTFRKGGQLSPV
Change	normalised enrichment score
KNAKRVLSSEFAN [N6V]	0.211
KWAKRNLSSEFAN [N2W]	0.776
KNAKRNLSSEFHN [A12H]	1.07
KNAKRNLLSEFAN [S8L]	2.8
KNYKRNLSSEFAN [A3Y]	1.42
KNAKRNLSHEFAN [S9H]	1.8
KNAKRNLSQEFAN [S9Q]	1.72
KNAKRNLASEFAN [S8A]	1.7
KNAKRNLSSYFAN [E10Y]	0.672
KNQKRNLSSEFAN [A3Q]	-0.0426
KNAKRNLSSEHAN [F11H]	0.000487
KNAKRNLSSERAN [F11R]	0.282
KNAKRNLSSEIAN [F11I]	0.333
KNAWRNLSSEFAN [K4W]	0.504

Study 4
Target: Histone acetyltransferase KAT6A, winged helix 2, GST fusion (KAT6A, Homo sapiens, UniProt Q92794, residues 85-181)
Technique: protein binding microarray
Form: double-stranded DNA, one strand shown
Medium: in vitro
Concentration: not given
Notes: 8-mer, flanks averaged, mean of 2 arrays, mostly near background
Relative to: not given
Reading: higher = stronger binding
Residues (chain): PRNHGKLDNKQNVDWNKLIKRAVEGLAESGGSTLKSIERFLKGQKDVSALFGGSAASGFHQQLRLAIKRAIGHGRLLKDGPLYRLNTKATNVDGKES
Strand	E-score
ACCTGTGC	-0.0644
GCAGGGAC	0.0123
AACAGTAT	-0.0787
CTTCATTC	-0.08
ACCTCTCA	-0.0726
GTGGAACA	0.155
CCAACACC	-0.00334
CATTCCGA	0.0784
ATTCGATC	0.0765
AATAGTTA	-0.0498
GCACGACC	-0.131
CAGCGCAA	0.0611
CCGAACGC	0.115
AAGCGTAC	-0.167
CGCGTTAG	0.162
ATCGCGTC	0.0873
GAGCGCCA	-0.0993
TCAAGCGA	-0.0526
CAGCTCAA	0.00201
CCTGATGC	0.0775
CTAAAAAA	0.0733
ACCTGTCG	0.048
AGTTGCCC	0.138
ACTAGACT	-0.289
AGTATAAT	0.0856

Further values, each from its own experiment
Technique: yeast two-hybrid
Medium: yeast
Notes: mostly zero background
Relative to: not given
Reading: higher = stronger interaction
UBE2U: UBE2U UBC core domain (UniProt Q5VVX9)
UniProt Q5VVX9, sequence (whole entry, looked up): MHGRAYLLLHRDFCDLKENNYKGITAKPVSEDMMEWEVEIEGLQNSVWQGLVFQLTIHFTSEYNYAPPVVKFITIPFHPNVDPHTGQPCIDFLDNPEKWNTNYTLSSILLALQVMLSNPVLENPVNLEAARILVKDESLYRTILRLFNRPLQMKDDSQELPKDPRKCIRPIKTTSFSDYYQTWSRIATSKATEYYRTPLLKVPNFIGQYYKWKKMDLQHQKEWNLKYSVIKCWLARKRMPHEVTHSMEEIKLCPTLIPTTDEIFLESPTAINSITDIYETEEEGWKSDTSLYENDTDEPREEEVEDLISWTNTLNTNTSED
UBE2D3: UBE2D3 UBC core domain (UniProt P61077)
UniProt P61077, sequence (whole entry, looked up): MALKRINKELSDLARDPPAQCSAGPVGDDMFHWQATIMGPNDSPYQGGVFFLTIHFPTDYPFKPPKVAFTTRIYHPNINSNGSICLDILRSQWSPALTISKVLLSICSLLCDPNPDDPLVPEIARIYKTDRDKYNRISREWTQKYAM
B1: NFX1 RING domain (UniProt Q12986); chain IEQLTTEKYECMVCCELVRVTAPVWSCQSCYHVFHLNCIKKWARSPASQADGQSGWRCPACQNVSAHVPNTY
B2: RING1 RING domain (UniProt Q06587); chain SPRSLHSELMCPICLDMLKNTMTTKECLHRFCSDCIVTALRSGNKECPTCRKKLVSKRSLR
Sequence	target	lacZ reporter activity
EIKEYKARLTCPCCNTRKKDAVLTKCFHVFCFECVRGRYEARQRKCPKCNAAFGAHDFHR (RNF40 RING domain (UniProt O75150))	UBE2U	0
FDPPLESKYECPICLMALREAVQTPCGHRFCKACIIKSIRDAGHKCPVDNEILLENQLFP (TRAF6 RING domain (UniProt Q9Y4K3))	UBE2D3	0
B1 (NFX1 RING domain)	UBE2U	0
B2 (RING1 RING domain)	UBE2D3	0

Excerpt of the above (study 4):
Strand	E-score
GCACGACC	-0.131
CTTCATTC	-0.08
ACTAGACT	-0.289
AATAGTTA	-0.0498
ACCTGTCG	0.048
ACCTGTGC	-0.0644
GCAGGGAC	0.0123
AGTATAAT	0.0856
